# Measured values of several laboratories.
# Each numbered part is a random draw from the data of one study; scales do not carry over between parts. “And” joins repeats or separate records; there may be more than shown.
# UniProt P22607, sequence (whole entry, looked up): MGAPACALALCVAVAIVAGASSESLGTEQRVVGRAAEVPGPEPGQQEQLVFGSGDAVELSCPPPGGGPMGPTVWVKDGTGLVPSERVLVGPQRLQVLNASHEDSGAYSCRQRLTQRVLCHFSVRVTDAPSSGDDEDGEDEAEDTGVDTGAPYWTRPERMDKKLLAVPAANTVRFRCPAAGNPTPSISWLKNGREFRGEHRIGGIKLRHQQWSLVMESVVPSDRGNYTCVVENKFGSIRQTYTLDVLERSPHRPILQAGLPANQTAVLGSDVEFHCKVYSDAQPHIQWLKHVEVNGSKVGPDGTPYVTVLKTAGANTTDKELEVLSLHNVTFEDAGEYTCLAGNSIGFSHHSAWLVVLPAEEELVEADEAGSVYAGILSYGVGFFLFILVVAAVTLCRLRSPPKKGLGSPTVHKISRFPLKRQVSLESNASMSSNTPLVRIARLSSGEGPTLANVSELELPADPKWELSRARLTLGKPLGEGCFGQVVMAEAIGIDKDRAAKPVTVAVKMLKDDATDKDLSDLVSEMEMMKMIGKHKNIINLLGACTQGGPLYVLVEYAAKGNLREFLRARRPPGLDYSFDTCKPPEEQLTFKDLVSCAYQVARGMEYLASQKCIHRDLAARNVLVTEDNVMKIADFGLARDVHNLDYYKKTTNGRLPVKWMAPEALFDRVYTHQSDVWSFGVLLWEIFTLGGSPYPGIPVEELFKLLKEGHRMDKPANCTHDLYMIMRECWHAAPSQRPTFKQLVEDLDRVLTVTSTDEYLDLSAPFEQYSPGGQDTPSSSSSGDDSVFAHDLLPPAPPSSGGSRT
# UniProt Q14012, sequence (whole entry, looked up): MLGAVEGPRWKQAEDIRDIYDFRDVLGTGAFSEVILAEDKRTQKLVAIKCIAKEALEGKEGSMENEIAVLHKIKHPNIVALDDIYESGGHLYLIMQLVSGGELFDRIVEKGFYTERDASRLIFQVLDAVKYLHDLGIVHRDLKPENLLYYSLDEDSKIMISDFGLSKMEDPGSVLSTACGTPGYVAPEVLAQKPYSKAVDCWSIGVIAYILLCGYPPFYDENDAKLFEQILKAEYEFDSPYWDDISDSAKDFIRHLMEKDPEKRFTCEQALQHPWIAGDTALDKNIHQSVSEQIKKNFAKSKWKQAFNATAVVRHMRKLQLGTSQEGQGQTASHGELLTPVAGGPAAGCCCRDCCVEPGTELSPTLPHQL
# UniProt P27361, sequence (whole entry, looked up): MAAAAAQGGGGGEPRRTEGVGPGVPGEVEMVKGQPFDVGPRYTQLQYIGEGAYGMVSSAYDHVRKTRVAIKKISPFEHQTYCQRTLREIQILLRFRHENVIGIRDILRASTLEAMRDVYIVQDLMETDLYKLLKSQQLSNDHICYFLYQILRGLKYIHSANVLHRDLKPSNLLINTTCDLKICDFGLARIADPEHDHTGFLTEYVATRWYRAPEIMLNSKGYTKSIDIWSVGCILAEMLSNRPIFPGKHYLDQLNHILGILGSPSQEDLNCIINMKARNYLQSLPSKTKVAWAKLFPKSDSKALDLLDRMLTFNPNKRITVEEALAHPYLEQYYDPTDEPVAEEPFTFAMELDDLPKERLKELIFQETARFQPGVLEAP
# UniProt Q02779, sequence (whole entry, looked up): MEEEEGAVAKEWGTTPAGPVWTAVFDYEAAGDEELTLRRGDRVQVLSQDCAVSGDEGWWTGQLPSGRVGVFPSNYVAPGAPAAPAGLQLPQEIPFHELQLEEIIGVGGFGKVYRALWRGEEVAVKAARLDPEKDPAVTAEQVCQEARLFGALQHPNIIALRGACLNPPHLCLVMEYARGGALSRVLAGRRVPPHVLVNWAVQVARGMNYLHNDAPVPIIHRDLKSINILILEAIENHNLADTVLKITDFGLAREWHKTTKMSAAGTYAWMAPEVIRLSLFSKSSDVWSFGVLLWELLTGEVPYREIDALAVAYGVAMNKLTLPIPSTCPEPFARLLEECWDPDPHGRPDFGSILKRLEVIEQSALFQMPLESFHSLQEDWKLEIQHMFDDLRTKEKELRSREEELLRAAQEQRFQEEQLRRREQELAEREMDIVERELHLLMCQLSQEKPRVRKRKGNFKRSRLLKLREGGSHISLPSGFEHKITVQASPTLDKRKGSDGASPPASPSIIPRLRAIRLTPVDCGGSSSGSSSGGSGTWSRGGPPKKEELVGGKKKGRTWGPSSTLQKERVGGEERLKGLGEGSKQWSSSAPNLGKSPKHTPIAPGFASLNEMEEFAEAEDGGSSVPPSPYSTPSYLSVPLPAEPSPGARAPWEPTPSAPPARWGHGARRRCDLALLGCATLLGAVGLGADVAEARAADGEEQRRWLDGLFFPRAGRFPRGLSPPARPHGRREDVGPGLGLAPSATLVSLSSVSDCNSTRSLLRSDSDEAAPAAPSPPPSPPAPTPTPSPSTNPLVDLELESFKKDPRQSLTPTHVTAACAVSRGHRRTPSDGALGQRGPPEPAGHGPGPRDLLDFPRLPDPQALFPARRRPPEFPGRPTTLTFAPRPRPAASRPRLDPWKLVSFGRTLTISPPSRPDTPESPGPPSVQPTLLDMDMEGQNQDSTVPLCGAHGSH
# UniProt Q9UBF8, sequence (whole entry, looked up): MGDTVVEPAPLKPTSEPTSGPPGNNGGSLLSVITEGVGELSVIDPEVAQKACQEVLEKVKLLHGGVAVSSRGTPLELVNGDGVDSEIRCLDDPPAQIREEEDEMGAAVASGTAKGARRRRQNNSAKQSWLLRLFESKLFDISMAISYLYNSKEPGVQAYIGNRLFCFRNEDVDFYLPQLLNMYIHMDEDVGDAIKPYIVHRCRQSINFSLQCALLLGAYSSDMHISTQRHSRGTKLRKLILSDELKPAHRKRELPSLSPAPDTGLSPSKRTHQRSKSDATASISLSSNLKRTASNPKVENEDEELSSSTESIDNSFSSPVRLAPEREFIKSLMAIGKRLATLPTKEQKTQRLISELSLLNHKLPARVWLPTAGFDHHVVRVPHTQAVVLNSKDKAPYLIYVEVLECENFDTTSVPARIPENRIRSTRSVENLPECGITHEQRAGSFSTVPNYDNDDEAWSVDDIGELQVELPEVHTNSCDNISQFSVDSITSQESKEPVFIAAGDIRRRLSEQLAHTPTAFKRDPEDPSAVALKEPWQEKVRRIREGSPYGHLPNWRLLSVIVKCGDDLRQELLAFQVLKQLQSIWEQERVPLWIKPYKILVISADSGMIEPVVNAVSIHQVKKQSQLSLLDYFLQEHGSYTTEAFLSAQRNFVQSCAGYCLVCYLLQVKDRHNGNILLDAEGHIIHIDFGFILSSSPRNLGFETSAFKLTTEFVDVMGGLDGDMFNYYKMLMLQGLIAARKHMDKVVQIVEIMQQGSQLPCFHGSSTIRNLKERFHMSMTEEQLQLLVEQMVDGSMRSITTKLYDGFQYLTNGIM

# Series 1 — observed: kinase activity
# SMILES: CNc1ncc2cc(-c3cc(OC)cc(OC)c3Cl)c(=O)n(CCc3ccc(NC(=O)C(C#N)=CC(C)(C)N4CCOCC4)cc3)c2n1
target,tested at,inhibition
"FGFR3 (Homo sapiens, UniProt P22607)",0.1 µM,95% and > 90%
"Mitogen-activated protein kinase kinase kinase 7, with TAB1 (MAP3K7, Homo sapiens, UniProt O43318)",0.1 µM,-2%
"KDR (Homo sapiens, UniProt P35968)",1 µM,85%
"STK4 (Homo sapiens, UniProt Q13043)",0.1 µM,9%
"TTK (Homo sapiens, UniProt P33981)",0.1 µM,0%
"HIPK1 (Homo sapiens, UniProt Q86Z02)",0.1 µM,-5%
"EIF2AK3 (Homo sapiens, UniProt Q9NZJ5)",0.1 µM,39%
"TYRO3 (Homo sapiens, UniProt Q06418)",1 µM,2%
"CLK3 (Homo sapiens, UniProt P49761)",1 µM,0%
"Cyclin-dependent kinase 5, with p25 (CDK5, Homo sapiens, UniProt Q00535)",1 µM,0%
"MAPK3 (Homo sapiens, UniProt P27361)",0.1 µM,6%
"TBK1 (Homo sapiens, UniProt Q9UHD2)",1 µM,1%
"HCK (Homo sapiens, UniProt P08631)",0.1 µM,1%
"PLK3 (Homo sapiens, UniProt Q9H4B4)",1 µM,1%
"NTRK3 (Homo sapiens, UniProt Q16288)",0.1 µM,3%
"PRKG2 (Homo sapiens, UniProt Q13237)",1 µM,1%
"PTK2B (Homo sapiens, UniProt Q14289)",1 µM,3%
"MAPK1 (Homo sapiens, UniProt P28482)",0.1 µM,-3%
"PI4KB (Homo sapiens, UniProt Q9UBF8)",0.1 µM,0%
"DYRK2 (Homo sapiens, UniProt Q92630)",0.1 µM,3%
"PAK3 (Homo sapiens, UniProt O75914)",1 µM,8%

# Series 2 — observed: thermal unfolding; method: differential scanning fluorimetry; tested at: 5.5 µM; reading: higher = more unfolded
# Compound: C[C@@H]1CN(c2ccc(-c3cc(C(=O)NCCOCCOCCOCCOCCNC(=O)Cn4cc(-c5[nH]cc(C(=O)N[C@@H](CC(N)=O)c6ccc(F)c(Cl)c6)c5-c5ccc(Cl)cc5F)cn4)ccc3F)cc2NC(=O)c2c[nH]c(=O)cc2C(F)(F)F)C[C@H](C)N1C
# DCAF1: DDB1- and CUL4-associated factor 1 (DCAF1, Homo sapiens, UniProt Q9Y4B6)
# UniProt Q9Y4B6, sequence (whole entry, looked up): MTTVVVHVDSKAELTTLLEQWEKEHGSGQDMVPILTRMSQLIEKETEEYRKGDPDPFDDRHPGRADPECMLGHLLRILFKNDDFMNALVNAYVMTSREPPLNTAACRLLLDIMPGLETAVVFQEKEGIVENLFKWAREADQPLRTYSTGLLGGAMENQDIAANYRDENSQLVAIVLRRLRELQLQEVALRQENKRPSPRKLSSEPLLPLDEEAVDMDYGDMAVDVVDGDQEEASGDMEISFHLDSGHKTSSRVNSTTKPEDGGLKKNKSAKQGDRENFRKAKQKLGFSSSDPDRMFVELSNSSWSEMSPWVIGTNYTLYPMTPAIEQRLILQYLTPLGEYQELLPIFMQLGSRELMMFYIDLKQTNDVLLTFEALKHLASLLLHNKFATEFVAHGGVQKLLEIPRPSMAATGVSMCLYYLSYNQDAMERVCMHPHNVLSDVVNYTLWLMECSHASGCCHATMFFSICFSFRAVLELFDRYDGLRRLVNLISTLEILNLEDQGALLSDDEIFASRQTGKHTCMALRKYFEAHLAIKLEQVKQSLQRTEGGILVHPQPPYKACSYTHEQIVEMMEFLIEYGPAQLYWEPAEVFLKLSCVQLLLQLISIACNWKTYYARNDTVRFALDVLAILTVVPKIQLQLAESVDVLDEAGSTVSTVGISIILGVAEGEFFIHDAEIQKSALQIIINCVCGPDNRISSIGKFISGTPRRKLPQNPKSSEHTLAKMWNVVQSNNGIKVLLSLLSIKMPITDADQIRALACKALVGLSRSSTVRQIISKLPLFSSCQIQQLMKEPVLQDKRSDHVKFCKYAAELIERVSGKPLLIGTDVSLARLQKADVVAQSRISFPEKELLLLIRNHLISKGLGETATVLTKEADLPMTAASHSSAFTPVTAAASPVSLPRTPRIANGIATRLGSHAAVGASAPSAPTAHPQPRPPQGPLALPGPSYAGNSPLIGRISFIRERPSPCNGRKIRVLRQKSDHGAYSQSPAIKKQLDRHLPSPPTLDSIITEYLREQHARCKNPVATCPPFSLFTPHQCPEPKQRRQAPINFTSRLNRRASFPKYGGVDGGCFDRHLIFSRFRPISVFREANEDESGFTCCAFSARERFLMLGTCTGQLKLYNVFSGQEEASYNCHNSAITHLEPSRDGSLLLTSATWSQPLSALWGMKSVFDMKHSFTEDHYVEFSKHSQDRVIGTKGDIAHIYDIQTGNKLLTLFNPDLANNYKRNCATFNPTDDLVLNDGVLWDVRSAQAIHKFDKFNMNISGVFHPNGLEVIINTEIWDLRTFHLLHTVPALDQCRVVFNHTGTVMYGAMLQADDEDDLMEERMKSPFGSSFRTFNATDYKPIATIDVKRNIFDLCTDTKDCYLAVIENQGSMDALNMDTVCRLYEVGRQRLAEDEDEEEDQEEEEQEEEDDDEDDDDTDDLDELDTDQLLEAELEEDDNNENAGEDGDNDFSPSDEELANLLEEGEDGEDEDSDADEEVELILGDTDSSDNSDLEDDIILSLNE
# WDR5: WD repeat-containing protein 5 (WDR5, Homo sapiens, UniProt P61964)
target,temperature,SYPRO Orange fluorescence [a.u.]
DCAF1,87.81 °C,37200
DCAF1,76.21 °C,48000
DCAF1,67.61 °C,56400
DCAF1,40.8 °C,10700
DCAF1,77.41 °C,46600
WDR5,47.8 °C,14400
WDR5,54.21 °C,14000
DCAF1,34.2 °C,8610
DCAF1,28.8 °C,8030
DCAF1,86.61 °C,38200
WDR5,45 °C,14300

# Series 3 — SMILES: O=C(Nc1ccccc1)Nc1cccc(Oc2ccc3nccn3n2)c1
target,observed,method,tested at,baseline,remaining binding [%]
FLT3 ITD,,KINOMEscan,1000 nM,control,100
"EPHB3 (Homo sapiens, UniProt P54753)",binding,competition with immobilised ligand,1 µM,,100
"TAOK1 (Homo sapiens, UniProt Q7L7X3)",binding,competition with immobilised ligand,1 µM,,100
"CAMKK1 (Homo sapiens, UniProt Q8N5S9)",binding,,1 µM,,100
"MAP3K10 (Homo sapiens, UniProt Q02779)",binding,,1 µM,,91
"FLT3 (Homo sapiens, UniProt P36888, R834Q)",binding,,1 µM,,96
"CLK2 (Homo sapiens, UniProt P49760)",binding,,1 µM,,100
"CDK4 (Homo sapiens, UniProt P11802)",binding,,1 µM,,100
"DYRK1B (Homo sapiens, UniProt Q9Y463)",binding,,1 µM,,55
"MAPK12 (Homo sapiens, UniProt P53778)",,cell-free binding,1 µM,,81
"PIK3CA (Homo sapiens, UniProt P42336, H1047Y)",binding,,1 µM,,98
"EPHA1 (Homo sapiens, UniProt P21709)",binding,competition with immobilised ligand,1 µM,,86
"CAMK1 (Homo sapiens, UniProt Q14012)",binding,,1 µM,,100
"MARK4 (Homo sapiens, UniProt Q96L34)",binding,,1 µM,,91

# Series 4 — observed: binding; method: competition with immobilised ligand; tested at: 1 µM
# Structure (SMILES): COc1cc(-c2nc3ccc(C(=O)NCCCN(C)C)cc3n2C2CCC2)cc(OC)c1OC
target,remaining binding [%]
"ERBB4 (Homo sapiens, UniProt Q15303)",82
"FGFR4 (Homo sapiens, UniProt P22455)",94
"CAMK2B (Homo sapiens, UniProt Q13554)",91
"MAP3K13 (Homo sapiens, UniProt O43283)",96
"MAP4K4 (Homo sapiens, UniProt O95819)",100
"STK38 (Homo sapiens, UniProt Q15208)",46
"PIK3CD (Homo sapiens, UniProt O00329)",65
"PLK4 (Homo sapiens, UniProt O00444)",100
"HASPIN (Homo sapiens, UniProt Q8TF76)",39
"PIP5K1A (Homo sapiens, UniProt Q99755)",98
"RIOK3 (Homo sapiens, UniProt O14730)",100
"AKT3 (Homo sapiens, UniProt Q9Y243)",91
"STK33 (Homo sapiens, UniProt Q9BYT3)",100
"KIT (Homo sapiens, UniProt P10721, A829P)",84
"MAP3K5 (Homo sapiens, UniProt Q99683)",82
"CDKL1 (Homo sapiens, UniProt Q00532)",76

# Some of these lines once more (series 3):
target,observed,method,tested at,baseline,remaining binding [%]
"CAMKK1 (Homo sapiens, UniProt Q8N5S9)",binding,,1 µM,,100
"MAP3K10 (Homo sapiens, UniProt Q02779)",binding,,1 µM,,91
"FLT3 (Homo sapiens, UniProt P36888, R834Q)",binding,,1 µM,,96
"CLK2 (Homo sapiens, UniProt P49760)",binding,,1 µM,,100
"CDK4 (Homo sapiens, UniProt P11802)",binding,,1 µM,,100
"DYRK1B (Homo sapiens, UniProt Q9Y463)",binding,,1 µM,,55
"MAPK12 (Homo sapiens, UniProt P53778)",,cell-free binding,1 µM,,81
"PIK3CA (Homo sapiens, UniProt P42336, H1047Y)",binding,,1 µM,,98
